Measurements collected from several papers.
Parts stem from different laboratories: compare values within a part only. Substitutions count along the parent as printed.

Set 1
Target: Ras GTPase-activating protein-binding protein 1, C-terminal RGG region (G3BP1, Homo sapiens, UniProt Q13283)
Chain of UniProt Q13283 (whole entry, looked up): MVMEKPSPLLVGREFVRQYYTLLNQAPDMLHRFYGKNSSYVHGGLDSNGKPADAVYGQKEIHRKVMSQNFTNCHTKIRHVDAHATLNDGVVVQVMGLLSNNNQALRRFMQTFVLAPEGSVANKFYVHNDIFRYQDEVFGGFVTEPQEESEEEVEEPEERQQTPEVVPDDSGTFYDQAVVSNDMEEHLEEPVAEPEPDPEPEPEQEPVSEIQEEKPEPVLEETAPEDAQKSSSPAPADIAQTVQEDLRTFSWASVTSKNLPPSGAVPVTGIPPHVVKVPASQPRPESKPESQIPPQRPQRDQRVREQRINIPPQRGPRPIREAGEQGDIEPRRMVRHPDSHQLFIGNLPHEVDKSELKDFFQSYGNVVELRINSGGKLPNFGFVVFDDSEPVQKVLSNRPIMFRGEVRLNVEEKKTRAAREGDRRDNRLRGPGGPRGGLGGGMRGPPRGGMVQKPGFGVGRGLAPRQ
Technique: RNA Bind-n-Seq
Molecule type: RNA
Medium: in vitro
Concentration: 1 µM
Setting: whole 134-nt RNA, ends assumed
Together with: 150 mM KCl
Baseline: input library
Direction: higher = stronger binding
Oligonucleotide	log2 enrichment
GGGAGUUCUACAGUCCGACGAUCUGGCCCUGAUGGCAUGCGGGGAGGAAGAGGUGGCCUCAUGGAUCGUGGUGGUCCCGGUGGAAUGUUCAGAGGUGGCCGUGGUGGAGACAGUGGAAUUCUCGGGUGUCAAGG	2.2
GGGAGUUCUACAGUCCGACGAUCAGUCCUGUGCUACACAUCGUAUGUACCGAAUCGGGAAAGGGUUUGGGAAAAAAAGGGAAAGUAUUAUGUUACGCCGUUCGGAUCUGCACUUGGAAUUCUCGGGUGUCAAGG	-0.397
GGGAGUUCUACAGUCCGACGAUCAGUCCUGUGCUACACAUCGUAUGUACCGAAUCGGGCCCCCGGGCCCCCGGCCCCCGGAAAGUAUUAUGUUACGCCGUUCGGAUCUGCACUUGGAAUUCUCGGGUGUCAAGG	-1.52
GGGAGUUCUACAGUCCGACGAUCUCCUGUGCUACACAUCGUAUGUACCGAAUCGGGAAAAAAAGGGUUUUUGGGUUUUUGGGAAAGUAUUAUGUUACGCCGUUCGGAUCUGCAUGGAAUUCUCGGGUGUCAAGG	-0.535
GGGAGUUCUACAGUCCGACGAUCGCAGGAAGUAAAAACAAAUGGAAAUGCGUCGGAUAGUGGCAGGGGUGGGGGUUGCUAAGGAAAGGGUGGGAUGGGAGUGGGUAAAGAGUUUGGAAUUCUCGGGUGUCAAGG	1.85
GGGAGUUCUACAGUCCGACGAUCACCAUGCAGGUGGGCAUCUUUGGGAAGUGGGGCAAGGGGGGGAUAGGGAGGGGGGUAACACUUUGGGAACAGGUGGUCCCAGGGCGUUUCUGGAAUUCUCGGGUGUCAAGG	2.23
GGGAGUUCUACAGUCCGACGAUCUAACUUUAGAGGAGGAUCUGAUGGAUAUGGCAGUGGACGUGGAUUUGGGGAUGGCUAUAAUGGGUAUCGAGGAGGACCUGGAGGUGGCAAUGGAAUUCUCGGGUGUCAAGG	-0.515
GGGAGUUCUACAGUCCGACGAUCCAAGUCCUGUGCUACACAUCGUAUGUACCGAAUCGGGUUUGGGUUUGGUUUGGGGAAAGUAUUAUGUUACGCCGUUCGGAUCUGCACUUCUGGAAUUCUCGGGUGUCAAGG	0.0318
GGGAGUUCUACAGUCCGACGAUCACCAUGCAGGUGGGCAUCUUUGGGAAGUGGGGCAAGGGGGGGAUAGGGAGGGGGGUAUCACUUUGGGAACAGGUGGUCCCAGGUCGUUUCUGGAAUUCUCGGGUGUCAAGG	1.93
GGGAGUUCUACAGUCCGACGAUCAGUCCUGUGCUACACAUCGUAUGUACCGAAUCGGGGUUUUGGUUUUGGGGUUUUGGGGAAAGUAUUAUGUUACGCCGUUCGGAUCUGCACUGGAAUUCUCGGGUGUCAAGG	-0.216

Set 2
Target: ABI1, truncated, D143A, DHFR fusion (Arabidopsis thaliana)
Technique: DHFR PCA, deep sequencing
Medium: yeast
Setting: methotrexate growth selection, single substitutions
Together with: (+)-ABA 58 µM
Baseline: wild-type fitted maximum
Direction: higher = stronger binding
Parent: PYL1, truncated, DHFR fusion (Arabidopsis thaliana); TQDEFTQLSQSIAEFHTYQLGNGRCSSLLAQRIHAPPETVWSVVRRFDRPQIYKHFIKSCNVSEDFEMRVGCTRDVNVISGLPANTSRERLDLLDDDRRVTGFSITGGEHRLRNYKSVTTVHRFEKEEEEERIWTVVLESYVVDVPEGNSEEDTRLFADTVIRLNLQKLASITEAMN; partner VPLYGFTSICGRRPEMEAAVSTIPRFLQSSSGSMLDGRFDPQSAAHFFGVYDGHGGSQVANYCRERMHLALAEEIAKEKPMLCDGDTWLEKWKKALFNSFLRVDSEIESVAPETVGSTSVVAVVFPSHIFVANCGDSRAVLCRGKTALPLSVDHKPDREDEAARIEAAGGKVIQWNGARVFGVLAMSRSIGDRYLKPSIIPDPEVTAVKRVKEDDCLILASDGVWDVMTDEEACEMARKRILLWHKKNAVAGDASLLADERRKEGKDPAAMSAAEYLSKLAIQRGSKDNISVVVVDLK
Change	relative binding score
R155W	15.7%
R163C	49%
Q167S	84.7%
F157T	4.57%
T17V	68.3%
C25W	3.49%
R99T	43.8%
T73W	80.8%
D144F	13.4%
F103A	-9.55%
G107R	35.3%
V118L	67.8%
S9T	86.3%
L8G	20.3%
L93H	91.8%
S9F	69.9%

Set 3
Target: Centromere-binding protein 1, full length, N-terminal tag (CBF1, Saccharomyces cerevisiae, UniProt P17106, residues 1-351)
Chain of UniProt P17106 (whole entry, looked up): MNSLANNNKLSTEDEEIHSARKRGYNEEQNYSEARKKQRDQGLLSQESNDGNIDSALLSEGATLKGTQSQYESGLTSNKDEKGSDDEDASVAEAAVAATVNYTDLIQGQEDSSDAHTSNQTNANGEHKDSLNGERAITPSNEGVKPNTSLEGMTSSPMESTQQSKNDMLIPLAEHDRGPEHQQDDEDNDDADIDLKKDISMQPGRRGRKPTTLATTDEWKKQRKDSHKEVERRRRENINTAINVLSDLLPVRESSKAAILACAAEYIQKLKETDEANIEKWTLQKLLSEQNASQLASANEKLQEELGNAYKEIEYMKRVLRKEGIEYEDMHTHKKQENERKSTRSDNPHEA
Technique: protein-binding microarray
Molecule type: double-stranded DNA, one strand shown
Medium: in vitro
Concentration: 0.8 µM
Setting: whole 60-bp probe, no competitor
Direction: higher = stronger binding
Oligonucleotide	fluorescence intensity
TGTACGAAGCTATACCATGTGATTATAGTAGTTAGGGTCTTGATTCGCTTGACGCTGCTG	2120 a.u.
TGTACGAAGCTATTTGATGTGATTATAGTAGTTAGGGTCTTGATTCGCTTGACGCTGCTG	498 a.u.
CTAGCTCACGTTAGTCACATCTCAGGATTGGAATTCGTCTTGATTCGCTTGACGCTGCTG	590 a.u.
CCTAACTACTATAGTCACGCGTAATAGCTTCGTACAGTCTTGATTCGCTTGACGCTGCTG	1110 a.u.
CTACTCTGTACACCTCACGCTAAATAGCTGCTATTCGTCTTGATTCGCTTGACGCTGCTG	508 a.u.
GAACCTTCCTTTTTATTCGTGATGTTGAGTAAGTAGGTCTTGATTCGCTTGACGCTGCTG	562 a.u.
CTATCACCTATATAACACGTTGGTTTCTCATTTTTCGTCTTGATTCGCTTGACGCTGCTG	517 a.u.
CTAAAATTTTGTCACCTGTGCTTTGCTAGAGTTTTCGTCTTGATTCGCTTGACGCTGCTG	754 a.u.
CTAGGAAAGAGGCCCCATGTGGCCTTCAAATAATTCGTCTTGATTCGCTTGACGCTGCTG	622 a.u.
CTAGGATTACGCAAACACACGCACAGATACAATTTCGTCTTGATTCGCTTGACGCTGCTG	555 a.u.
CTAAGTGAAATACAACAGCTGAGTGCAGATAAGTTCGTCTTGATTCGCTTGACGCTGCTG	539 a.u.
CTAGGAATAGCACATGGTGATGGTACAACAATGTTCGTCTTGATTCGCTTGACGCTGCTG	724 a.u.
GAATTTCGATCAATTCTCCTGATATTATTGAGTTAGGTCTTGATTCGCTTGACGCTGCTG	498 a.u.
CTACTGTATTTCTATCACGTATCCTTCTAGGTTTTCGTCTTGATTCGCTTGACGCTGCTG	660 a.u.
CTACCAATATATACTCACATGTAACAACTTATTTTCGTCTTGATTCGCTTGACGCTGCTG	845 a.u.
CTAGTTATCACTTAATACACCACCTGGTGTCCATTCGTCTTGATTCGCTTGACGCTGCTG	686 a.u.
GAATCTAGAACTCACGTTATGATATATTCTTACTAGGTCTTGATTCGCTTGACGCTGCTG	722 a.u.
GAATGGACTAAAATTCACATGAAATTCTCCTAATAGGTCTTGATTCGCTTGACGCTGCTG	543 a.u.
TGTACGAAGCTATACGTGAATATTATAGTAGTTAGGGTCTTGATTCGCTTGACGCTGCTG	556 a.u.
GAAGCATATTTGAGTATCGTGATCCCTTTTTTTTAGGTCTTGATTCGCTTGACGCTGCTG	1460 a.u.
GAATTGAAAGGGCATAACGTGCAGACAAAAACATAGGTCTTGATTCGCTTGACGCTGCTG	754 a.u.
CTAGTTTCTTAGATATGCGTGCCTTAAGGCGACTTCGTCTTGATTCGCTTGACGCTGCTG	531 a.u.
CCTAACTACTATACAAATGTGTCATAGCTTCGTACAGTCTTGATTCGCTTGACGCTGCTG	530 a.u.
CCTAACTACTATATGCACGCAAGATAGCTTCGTACAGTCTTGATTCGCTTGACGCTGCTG	513 a.u.

Set 4
Target: Histone acetyltransferase KAT6A, both winged helices, GST fusion (KAT6A, Homo sapiens, UniProt Q92794, residues 1-181)
Technique: protein binding microarray
Molecule type: double-stranded DNA, one strand shown
Medium: in vitro
Concentration: not given
Setting: 8-mer, flanks averaged, mean of 2 arrays, mostly near background
Baseline: not given
Direction: higher = stronger binding
Target sequence (chain): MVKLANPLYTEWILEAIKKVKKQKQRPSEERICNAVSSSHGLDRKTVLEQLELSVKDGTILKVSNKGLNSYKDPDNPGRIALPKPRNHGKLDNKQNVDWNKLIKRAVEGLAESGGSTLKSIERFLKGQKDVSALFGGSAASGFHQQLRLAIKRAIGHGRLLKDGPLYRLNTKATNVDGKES
Oligonucleotide	E-score
ATTAGTGC	-0.0652
GGGTACCC	0.0645
CACCGAAG	-0.00515
CAGTAAGC	-0.107
TGAACCAA	-0.229
CACTTGAC	-0.0287
ACCTTCGG	-0.0982
CCACACGC	0.0536
CTTCGTCC	0.0323
AGGTCCCC	-0.0357
GGAGGGCC	-0.0901
TACGCCGA	0.261
CAAACCAG	-0.2
ACGAGGTG	-0.123
ACAGGTAG	-0.165
GAGGCGGA	0.114
ACACACCA	-0.156
AAAAACCA	-0.0114
GCACGCCC	0.155
CATCATTC	0.0213
TAAAGTTA	-0.0202
CTGTAGAA	-0.265
AAGACGGG	0.168
ACGTGCTC	-0.0441
CAGCCCCC	-0.171

Mixed results
Molecule	target	test	test system	setting	how to read	measurement	value
PhoQ, residues 284 288 289 292 302 303 TTCLQL	PhoP, residues 12 14 15 18 19 LYFRQ (Escherichia coli, UniProt P23836)	Sort-seq, item: YFP reporter	E. coli	PhoQ-PhoP variant library, together with: 10 µM Mg2+	baseline: high Mg2+ state, higher = stronger signaling	fold induction	3.47
